{"data": "Published values from different studies", "note": "Lines come from different studies, so protocols differ. ± marks the error that the study gave."}
{"Compound": "O=C(c1ccc(F)c(F)c1Nc1ccc(I)cc1F)N1CC(O)([C@@H]2CCCCN2)C1", "test": "measured: retinal detachment", "test system": "human patients", "conditions": "oral, dose not given, dose escalation, suspension, grade G2", "endpoint": "treatment-related adverse events", "result": "0%"}
{"Compound": "CCOCN(C(=O)CCl)c1c(C)cccc1CC", "test": "LC-MS/MS", "test system": "herbicide solution", "conditions": "2 h, 4 °C, with: 254 nm UV exposure", "endpoint": "remaining amount", "result": "48.4 ± 34.1%"}
{"Compound": "CC(=O)N[C@H](CCCCNC(=O)C(C)F)C(=O)N[C@@H](CS)C(=O)N[C@@H](CS)C(=O)N[C@@H](CCC(=O)O)C(=O)N[C@@H](Cc1c[nH]cn1)C(=O)N[C@H](Cc1ccccc1)C(=O)N[C@@H](CCCNC(=N)N)C(=O)N[C@@H](Cc1c[nH]c2ccccc12)C(=O)N[C@@H](CS)C(=O)N[C@@H](CCCNC(=N)N)C(=O)N1CCC[C@H]1C(=O)N[C@H](C(N)=O)C(C)C (stereo partly shown) [fluorine-18 labelled]", "test system": "C57BL/6 mice, male, B16-F10 tumour, blood", "conditions": "intravenous, 2 h", "endpoint": "tissue uptake", "result": "0.42 ± 0.06 %ID/g"}
{"Compound": "Nc1cc(C(F)(F)F)c(-c2cc(N3CCOCC3)nc(N3CCOCC3)n2)cn1", "test system": "severe hepatic impairment, plasma", "conditions": "oral, 30 mg", "how to read": "reference: normal hepatic function", "endpoint": "unbound AUCinf increase", "result": "52%"}
{"Compound": "CCCCCOc1ccc(-c2cc(-c3ccc(C(=O)N[C@H]4C[C@@H](O)[C@@H](O)NC(=O)[C@@H]5[C@@H](O)[C@@H](C)CN5C(=O)[C@H]([C@H](O)CC(N)=O)NC(=O)[C@H]([C@H](O)[C@@H](O)c5ccc(O)c(OS(=O)(=O)O)c5)NC(=O)[C@@H]5C[C@@H](O)CN5C(=O)[C@H]([C@@H](C)O)NC4=O)cc3)no2)cc1", "test system": "human children aged 6-11 years, plasma", "conditions": "intravenous, 4.5 mg/kg once daily, day 7, median", "endpoint": "clearance at steady state", "result": "0.283 mL/min/kg"}
{"Compound": "Cc1cc2c(C(C)C)c(O)c(O)c(C=O)c2c(O)c1-c1c(C)cc2c(C(C)C)c(O)c(O)c(C=O)c2c1O", "test": "cytochrome c release, ELISA", "test system": "BALB/cByJ female mouse liver mitochondria", "conditions": "30 min", "how to read": "reference: alamethicin maximal release", "endpoint": "EC20", "result": "> 10 µM"}
{"Compound": "O=c1[nH]c(Cc2ccccn2)nc2c1cnn2C1CCOCC1", "test system": "healthy men, extensive metabolizers, plasma", "conditions": "oral, 200 mg single dose, tablet, geometric mean", "endpoint": "AUC(0-inf)", "result": "3.92 µM·h"}
{"Compound": "CC(C)C[C@H](NC(=O)[C@H](CCC(=O)O)NC(=O)[C@H](CCC(=O)O)NC(=O)[C@H](CC(=O)O)NC(=O)[C@H](CCC(=O)O)NC(=O)[C@H](CCC(=O)O)NC(=O)[C@H](CCC(=O)O)NC(=O)[C@@H](N)CC(=O)O)C(=O)O", "test system": "rat, CSF", "conditions": "subcutaneous, 11.0 mg/kg, 60 min", "endpoint": "concentration", "result": "18 ng/mL"}
{"Compound": "COc1ccc(C[C@@H]2NC(=O)[C@H]([C@@H](C)O)NC(=O)[C@@H]3[C@@H]4CCN3C(=O)[C@@H]3Cc5cn(c6ccc(F)cc56)CCCCCCN(Cc5ccc(cc5)CCNC(=O)[C@]5(C)CCCN5C2=O)C(=O)CCC(=O)N[C@@H](C)C(=O)N[C@H](CNC(=O)CCCCC[N+](C)(C)C)C(=O)N[C@@H](Cc2cccc(c2)CNC(=O)CO4)C(=O)N3)cc1", "test system": "fasted healthy humans, plasma", "conditions": "oral, 100 mg single dose, with 1800 mg Labrasol, geometric mean", "endpoint": "CL/F", "result": "997 mL/min"}
{"Compound": "O[C@H]1CCCN[C@@H]1CCCn1cnc2c(Cl)c(Cl)ccc21", "test system": "human, plasma", "conditions": "oral, 100 mg single dose, capsule, geometric mean", "endpoint": "half-life", "result": "6.91 h"}
{"Compound": "CC1(C)S[C@@H]2[C@H](NC(=O)[C@@H](C(=O)O)c3ccsc3)C(=O)N2[C@H]1C(=O)O", "test system": "rat plasma", "conditions": "30 ng/mL, 24 h, room temperature, short-term stability", "how to read": "reference: nominal concentration", "endpoint": "relative error", "result": "-4%"}
{"Compound": "CC(C)(NC(=O)O[C@@H]1CN2CCC1CC2)c1csc(-c2ccc(F)cc2)n1", "test system": "human, CSF", "conditions": "oral, 15 mg once daily, week 52, with: imiglucerase", "endpoint": "CSF concentration", "result": "not detected"}
{"Compound": "CN[C@H](CC(C)C)C(=O)N[C@H]1C(=O)N[C@@H](CC(N)=O)C(=O)N[C@H]2C(=O)N[C@H]3C(=O)N[C@H](C(=O)N[C@H](C(=O)O)c4cc(O)cc(O)c4-c4cc3ccc4O)[C@H](O)c3ccc(c(Cl)c3)Oc3cc2cc(c3O[C@@H]2O[C@H](CO)[C@@H](O)[C@H](O)[C@H]2O[C@H]2C[C@](C)(N)[C@H](O)[C@H](C)O2)Oc2ccc(cc2Cl)[C@H]1O", "test system": "Sprague-Dawley rat, male, urine", "conditions": "concentration not given, day 1, bolus dosing", "how to read": "reference: humanized infusion group", "endpoint": "urinary clusterin difference", "result": "1930 ng/24 h"}
{"Compound": "CNC(=O)c1ccc(-c2cnn3ccc(C(=O)N(C)c4ccc(Cl)c(C(=O)OC)c4)cc23)cc1", "test system": "female C57BL/6 mouse, plasma", "conditions": "oral, 10 mg/kg", "endpoint": "AUC", "result": "0.019 µM·h"}
{"Compound": "[123I]c1cncc(OC[C@@H]2CCN2)c1", "test": "SPECT", "test system": "human, high plasma nicotine, cortex", "conditions": "intravenous, dose not given", "how to read": "reference: plasma", "endpoint": "tissue/plasma ratio", "result": 13}
{"Compound": "CCCCCCCCCCCCCCCCCC[N+](C)(C)C", "test": "ultrafiltration", "test system": "human serum", "endpoint": "unbound fraction in blood", "result": 0.07}
{"Compound": "CC[C@H](C)[C@H](NC(=O)[C@H](CC(C)C)NC(=O)[C@H](Cc1c[nH]c2ccccc12)NC(=O)[C@H](CCC(N)=O)NC(=O)[C@@H](NC(=O)[C@H](Cc1ccccc1)NC(=O)[C@H](C)NC(=O)[C@H](CCCCNC(=O)COCCOCCNC(=O)COCCOCCNC(=O)CC[C@H](NC(=O)CCCCCCCCCCCCCCCCCCC(=O)O)C(=O)O)NC(=O)[C@H](CCC(N)=O)NC(=O)[C@H](C)NC(=O)[C@@H](NC(=O)[C@H](CCCCN)NC(=O)[C@H](CC(=O)O)NC(=O)[C@H](CC(C)C)NC(=O)C(C)(C)NC(=O)[C@@H](NC(=O)[C@H](CO)NC(=O)[C@H](Cc1ccc(O)cc1)NC(=O)[C@H](CC(=O)O)NC(=O)[C@H](CO)NC(=O)[C@@H](NC(=O)[C@H](Cc1ccccc1)NC(=O)[C@@H](NC(=O)CNC(=O)[C@H](CCC(=O)O)NC(=O)C(C)(C)NC(=O)[C@@H](N)Cc1ccc(O)cc1)[C@@H](C)O)[C@@H](C)O)[C@@H](C)CC)[C@@H](C)CC)C(C)C)C(=O)N[C@@H](C)C(=O)NCC(=O)NCC(=O)N1CCC[C@H]1C(=O)N[C@@H](CO)C(=O)N[C@@H](CO)C(=O)NCC(=O)N[C@@H](C)C(=O)N1CCC[C@H]1C(=O)N1CCC[C@H]1C(=O)N1CCC[C@H]1C(=O)N[C@@H](CO)C(N)=O", "test system": "human, severe hepatic impairment", "conditions": "subcutaneous, 5 mg", "how to read": "reference: normal hepatic function", "endpoint": "tmax difference", "result": "0 h"}
{"Compound": "CC[C@H](C)[C@H](NC(=O)[C@H](CC(C)C)NC(=O)[C@H](Cc1c[nH]c2ccccc12)NC(=O)[C@H](CCC(N)=O)NC(=O)[C@@H](NC(=O)[C@H](Cc1ccccc1)NC(=O)[C@H](C)NC(=O)[C@H](CCCCNC(=O)COCCOCCNC(=O)COCCOCCNC(=O)CC[C@H](NC(=O)CCCCCCCCCCCCCCCCCCC(=O)O)C(=O)O)NC(=O)[C@H](CCC(N)=O)NC(=O)[C@H](C)NC(=O)[C@@H](NC(=O)[C@H](CCCCN)NC(=O)[C@H](CC(=O)O)NC(=O)[C@H](CC(C)C)NC(=O)C(C)(C)NC(=O)[C@@H](NC(=O)[C@H](CO)NC(=O)[C@H](Cc1ccc(O)cc1)NC(=O)[C@H](CC(=O)O)NC(=O)[C@H](CO)NC(=O)[C@@H](NC(=O)[C@H](Cc1ccccc1)NC(=O)[C@@H](NC(=O)CNC(=O)[C@H](CCC(=O)O)NC(=O)C(C)(C)NC(=O)[C@@H](N)Cc1ccc(O)cc1)[C@@H](C)O)[C@@H](C)O)[C@@H](C)CC)[C@@H](C)CC)C(C)C)C(=O)N[C@@H](C)C(=O)NCC(=O)NCC(=O)N1CCC[C@H]1C(=O)N[C@@H](CO)C(=O)N[C@@H](CO)C(=O)NCC(=O)N[C@@H](C)C(=O)N1CCC[C@H]1C(=O)N1CCC[C@H]1C(=O)N1CCC[C@H]1C(=O)N[C@@H](CO)C(N)=O", "test system": "human, severe renal impairment, plasma", "conditions": "subcutaneous, 5 mg, geometric mean", "endpoint": "AUC(0-last)", "result": "81200 ng·h/mL"}
{"Compound": "CSCC[C@H](NC(=O)[C@@H](NC(=O)[C@H](CO)NC(=O)CNC(=O)[C@H](C)NC(=O)[C@H](C)NC(=O)CNC(=O)[C@H](CC(C)C)NC(=O)[C@H](Cc1ccccc1)NC(=O)CNC(=O)[C@H](CC(C)C)NC(=O)[C@H](Cc1ccccc1)NC(=O)[C@H](CC(C)C)NC(=O)[C@H](C)NC(=O)CNC(=O)c1ccc2c(c1)C(=O)OC21c2ccc(O)cc2Oc2cc(O)ccc21)[C@@H](C)O)C(=O)NCC(=O)N[C@@H](C)C(=O)N[C@@H](Cc1c[nH]c2ccccc12)C(=O)N[C@@H](CO)C(=O)N[C@@H](CCC(N)=O)C(=O)N1CCC[C@H]1C(=O)N[C@@H](CCCCN)C(=O)N[C@@H](CCCCN)C(=O)N[C@@H](CCCCN)C(=O)N[C@@H](CCCNC(=N)N)C(=O)N[C@@H](CCCCN)C(=O)N[C@H](C(=O)O)C(C)C", "test": "no effect", "test system": "Sprague-Dawley rat, excised skin", "conditions": "50 µmol/L, 37 °C, FAM-labelled CPP conjugate", "how to read": "reference: free FAM", "endpoint": "apparent skin permeability", "result": "no effect"}
{"Compound": "CC(C)C[C@@H](NC(=O)[C@@H](Cc1ccccc1)NC(=O)[C@H](N)Cc1ccccc1)C(=O)N[C@H](CCCCN)C(=O)N1CCC(N)(C(=O)O)CC1", "test": "measured: total radioactivity", "test system": "healthy human subjects", "conditions": "intravenous, time not given", "endpoint": "total dose recovery, urine and feces", "result": "91.8%"}
{"Compound": "CN[C@@](C)(C[18F])C(=O)O", "test system": "SCID mouse SK-OV-3 xenograft, bone", "conditions": "15 min, post injection", "endpoint": "tissue uptake", "result": "3.2 ± 0.7 %ID/g"}
{"Compound": "C[C@H]1CO[C@@H]2Cn3cc(C(=O)NCc4ccc(F)cc4F)c(=O)c(O)c3C(=O)N12", "test system": "Indian rhesus macaque, female, Depo-Provera-treated, plasma", "conditions": "intramuscular, 50 mg/kg, 10 weeks after first dose, at first viral RNA detection", "endpoint": "plasma concentration", "result": "150 ng/mL"}
{"Compound": "CC[C@H](C)[C@H](NC(=O)[C@H](CO)NC(=O)[C@H](C)NC(=O)[C@@H](NC(=O)CNC(=O)[C@H](CO)NC(=O)[C@@H](NC(=O)[C@@H](NC(=O)[C@H](Cc1c[nH]cn1)NC(=O)[C@@H]1CCCN1C(=O)[C@@H](NC(=O)[C@H](CC(C)C)NC(=O)[C@H](CO)NC(=O)[C@H](CC(C)C)NC(=O)[C@@H](N)Cc1ccccc1)[C@@H](C)CC)[C@@H](C)CC)C(C)C)C(C)C)C(=O)N[C@@H](C)C(=O)N[C@@H](CCCCN)C(=O)N[C@@H](Cc1c[nH]cn1)C(=O)N[C@@H](Cc1ccccc1)C(N)=O", "test": "UPLC-MS/MS", "test system": "processed rat plasma in autosampler", "conditions": "0.05 µg/mL, 8 h, 25 °C, post-preparative stability", "endpoint": "concentration found", "result": "49 ng/mL"}
{"Compound": "CC(C)Nc1nc(Cl)nc(NC(C)C)n1", "test": "LC-MS/MS", "test system": "herbicide solution", "conditions": "2 h, 23 °C, with: 365 nm UV exposure", "endpoint": "remaining amount", "result": "47.2 ± 22.9%"}
{"Compound": "c1cc2ccc3cccc4ccc(c1)c2c34", "test": "HPLC-fluorescence", "test system": "Wistar rat, male, stomach", "conditions": "oral, 4 mg/kg, 24 h", "endpoint": "tissue concentration", "result": "22.9 ± 5.2 ng/g"}
{"note": "Some of these lines once more:"}
{"Compound": "O[C@H]1CCCN[C@@H]1CCCn1cnc2c(Cl)c(Cl)ccc21", "test system": "human, plasma", "conditions": "oral, 100 mg single dose, capsule, geometric mean", "endpoint": "half-life", "result": "6.91 h"}
{"Compound": "CC1(C)S[C@@H]2[C@H](NC(=O)[C@@H](C(=O)O)c3ccsc3)C(=O)N2[C@H]1C(=O)O", "test system": "rat plasma", "conditions": "30 ng/mL, 24 h, room temperature, short-term stability", "how to read": "reference: nominal concentration", "endpoint": "relative error", "result": "-4%"}
